Measurements gathered from unrelated publications.
A part holds a random share of what one study measured. Changes are numbered by the printed parent chain.

Series 1 — target: CCNF, cyclin fold, Cln2 fusion (human); method: yeast growth competition, sequencing; matrix: yeast; notes: strong parent motif; reference: not given; reading: higher = stronger binding
Starting sequence: E2F1 docking peptide (human); PPVKRRLDLETDH; partner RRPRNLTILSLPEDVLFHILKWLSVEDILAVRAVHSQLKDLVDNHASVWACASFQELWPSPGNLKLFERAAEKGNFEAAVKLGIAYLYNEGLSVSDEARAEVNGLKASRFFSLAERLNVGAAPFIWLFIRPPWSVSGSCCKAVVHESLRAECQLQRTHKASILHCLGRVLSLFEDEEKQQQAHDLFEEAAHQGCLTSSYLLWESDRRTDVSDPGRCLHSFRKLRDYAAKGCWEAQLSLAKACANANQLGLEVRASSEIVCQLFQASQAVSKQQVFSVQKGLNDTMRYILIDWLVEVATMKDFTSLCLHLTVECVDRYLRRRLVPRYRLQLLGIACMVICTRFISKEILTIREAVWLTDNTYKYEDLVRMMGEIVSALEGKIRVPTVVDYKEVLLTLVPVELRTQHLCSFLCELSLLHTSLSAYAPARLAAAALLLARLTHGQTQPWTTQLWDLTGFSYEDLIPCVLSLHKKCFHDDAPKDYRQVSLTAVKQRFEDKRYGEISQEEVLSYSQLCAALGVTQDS
Variant	normalised enrichment score
FPVKRRLDLETDH [P1F]	7.89
PPLKRRLDLETDH [V3L]	1.42
PPVNRRLDLETDH [K4N]	6.43
IPVKRRLDLETDH [P1I]	5.75
PRVKRRLDLETDH [P2R]	5.29
PWVKRRLDLETDH [P2W]	5.68
PPVRRRLDLETDH [K4R]	7.83
PPVKRRLDLETDI [H13I]	7.34
PPVKRRLDLEEDH [T11E]	5.73
PPVKRRLELETDH [D8E]	5.36
PPVKRRPDLETDH [L7P]	0.0223
PPCKRRLDLETDH [V3C]	6.73
PPVKARADLETDH [R5A L7A]	-0.238
PYVKRRLDLETDH [P2Y]	5.16
PPVKRRLDLLTDH [E10L]	5.98
PPNKRRLDLETDH [V3N]	1.34

Series 2 — method: RNA Bind-n-Seq; form: RNA; matrix: in vitro; concentration: 365 nM; reference: no-protein control; reading: higher = stronger binding
Target: RNA binding protein fox-1 homolog 2, RRM domain, GST-SBP tag (RBFOX2, Homo sapiens, UniProt O43251-10, residues 100-194)
Notes: natural RNA segment, single round, ends assumed
Constant ends, left off below: GGGAGUUCUACAGUCCGACGAUC … UGGAAUUCUCGGGUGCCAA
Residues (chain): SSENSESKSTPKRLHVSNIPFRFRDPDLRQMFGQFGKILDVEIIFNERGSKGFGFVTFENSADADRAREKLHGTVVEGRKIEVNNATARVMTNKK
Sequence	RBNS enrichment (R)
UCAUCCCGAGCACCUCCACAUCCUCCACGUUCUGCUCAUCAUUCUCUGUCUCAUCCAUCAUCAUGUGUGUCCACGACUGUCUCCAUGGCCCUGCAAAAGGACUCUCAGGA	0.723
AGAAAACUGGUUGUAGUUUACUAUUUUACCUACCUAAAAACAGAUGUGAUGGCUCUUUAAGAAUUGGGUUUGACCAAAGUUCUCUUUGUUUUCAGGGAAAACUAUAUAAA	0.355
GCUGUAUGAUAAAUUGUUGAAAUGCAAGUGUAAAUAUUUUUUAUGUUAAUCCAGUUUCCUAUUAGAAAGUGUGUCUUUGCUAUUUCCUCUGUAAGAGAAUAGAAUGGCCU	0.974
GUAACUGGAGACCAGUGGAAAUGAGUAUCAUAGAUGGUCAGGCUGCAGAUGGAUCCCAGAACCUGCAGCUACCACGGACACCAGGAGGCCCUCGGGCCACUUGGUGGAAG	0.162
CACACUGCACUCUUUGAUCCUCCCUGGUGUCUGGUGCCUUCUAUCUUAAAAAACAUGACAAGUCAUAACAGUUUUAAAGGGAAGACUUGUAAACUGGAAAAUCAUGUAUU	0.583
AACCAAGCAAGCAAGCAAGAGCAUCCAGUUGUGAUUAGGGUUAAAAUCAUCCAUCCUAAUUAAUGAUUUGGAAAGUUUGACUCUCUUCCUCUCAAGUGUCUUGUGGAGUC	0.783
UCUAGUUAAAUAGCACAGUUUGGAAACUUGUCUGAGACUGACUUUAUCAAUAAUCUAACCGACAAAGAUCAUAUCCAUGUGUAUGUGGUUAGACAUUUUUAUUUCAUUGA	0.504
AUGUGCAUUCAAAAGGAAUAGAACGAAUUUCUGUCAUCCCGGUGACCCUCCUGGUGCCGGGCUCUUGUUGUCAUAAAGUUCUCCCAUAUUUCUAUAAGGAUGGAUUUAUA	0.479
GAGCAUCUGUGCACCCACUCUUCAGCCCCUACCCAUCUGCCACCUUGGUCUGACUUGGCCAUGGGAGCCUUUCCCAACCCAGUGUGGAAGGGAGUCGGGAGGGAAGGAAG	0.448
UGCUCAAACUGUCAUGGCACCACGGGCAAUGCGGUCCUCCCUACCGUUCUCCUUCCCCUUCUCUGCAUCUGCUUUCUCCAGGUCCCCGUAUAUCAACCUUCGACUUUCUC	2.16
GAACACAGCCAUCUUGGCCCACUAUCAGGACCAGGCAUGACUCACCAGUGUCAUCUCUGCACUUCAGGAAUUGUCAACAACUGAGGUGGCCCUUGUCAGCACUUCUUUUU	0.423
UAAACCUACAAUUGAUUGCUUCUAGAGUUUAAAAAGGGAAAGUUGUGCUUGUAUUUGCAAGUUGAAUUUUUUUAAUGUUGGUUCCAAAAACAGUGAAUUAGCUGAAAAGA	3.15

Series 3 — target: FOS, bZIP domain (human); method: DHFR protein complementation; matrix: yeast; reference: wild-type JUN-FOS pair; reading: higher = stronger binding
Notes: single substitutions, most at no-binding floor
Starting sequence: JUN, bZIP domain (human); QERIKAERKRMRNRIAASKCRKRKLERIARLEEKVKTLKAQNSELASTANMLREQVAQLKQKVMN; partner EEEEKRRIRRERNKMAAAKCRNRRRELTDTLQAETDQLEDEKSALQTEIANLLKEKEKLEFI
Variant	binding fitness [natural log]
V35Y	-0.347
T37A	0.048
E33I	-0.36
L52R	-1.19
S47W	-0.152
N42E	-1.1
V56A	-1.25
L31T	-0.754
A57C	-0.281
L45G	-1.24
R30D	0.11
V56M	-0.965
E54D	-0.223

Series 4 — method: RNA Bind-n-Seq; form: RNA; matrix: in vitro; concentration: 200 nM; notes: whole 134-nt RNA, ends assumed; together with: 150 mM KCl; reference: input library; reading: higher = stronger binding
Target: Fragile X messenger ribonucleoprotein 1, C-terminal low-complexity region (Fmr1, Mus musculus, UniProt P35922)
Constant ends, left off below: GGGAGUUCUACAGUCCGACGAUC … UGGAAUUCUCGGGUGUCAAGG
Sequence	log2 enrichment
UCCUGUGCUACACAUCGUAUGUACCGAAUCGGGGAAAAAGGGGAAAAAGGGGAAAAAGGAAAGUAUUAUGUUACGCCGUUCGGAUCUGCA	-0.0712
AAGUCCUGUGCUACACAUCGUAUGUACCGAAUCGGGAAAGGGGAAAGGGGAAAGGGAAAGUAUUAUGUUACGCCGUUCGGAUCUGCACUU	0.217
AGUCCUGUGCUACACAUCGUAUGUACCGAAUCAAAGUGUGUGUGUGUGUGUGUGUAAAAAAGUAUUAUGUUACGCCGUUCGGAUCUGCAC	0.101
UAACUUUAGAGGAGGAUCUGAUGGAUAUGACAGUGGACGUGGAUUUGGGGAUGGCUAUAAUGGGUAUGGAGGAGGACCUGGAGGUGGCAA	0.26
UGGGAGGUGGAUUUUGUUUAUUUUUUUAGCUCAUUUCCAGGGGUGGGAAUUUUUUUUUAAUAUGAGUCAUGAAUAAAGUUGUUUUUGAAA	0.0548
AAGUCCUGUGCUACACAUCGUAUGUACCGAAUCGGGUUUUUGGGUGGGUUUUUGGGAAAGUAUUAUGUUACGCCGUUCGGAUCUGCACUU	0.919
UCCUCAAGUCCUGUGCUACACAUCGUAUGUACCGAAUCGGGAGGGAGGGAGGAAAGUAUUAUGUUACGCCGUUCGGAUCUGCACUUCCAG	1.53
CUCAAGUCCUGUGCUACACAUCGUAUGUACCGAAUCGGGGCGGGGCGGCGGGGAAAGUAUUAUGUUACGCCGUUCGGAUCUGCACUUCCA	1.05
CAAGUCCUGUGCUACACAUCGUAUGUACCGAAUCGGGGAAAAGGAAAAGGAAAAGGAAAGUAUUAUGUUACGCCGUUCGGAUCUGCACUU	-0.449
CCUGUGCUACACAUCGUAUGUACCGAAUCGGGGAAAAAGGGGAAAAAAAGGGGAAAGGGGAAAGUAUUAUGUUACGCCGUUCGGAUCUGC	0.236

Other studies, line by line
Molecule	target	assay	system	conditions	how to read	quantity	result
PhoQ, residues 284 288 289 292 302 303 SLSVQF	PhoP, residues 12 14 15 18 19 AQALL (Escherichia coli, UniProt P23836)	Sort-seq, refers to: YFP reporter	E. coli	PhoQ-PhoP variant library, together with: 10 µM Mg2+	reference: high Mg2+ state, higher = stronger signaling	fold induction	7.35

Some of these lines once more (series 4):
Sequence	log2 enrichment
AGUCCUGUGCUACACAUCGUAUGUACCGAAUCAAAGUGUGUGUGUGUGUGUGUGUAAAAAAGUAUUAUGUUACGCCGUUCGGAUCUGCAC	0.101
UAACUUUAGAGGAGGAUCUGAUGGAUAUGACAGUGGACGUGGAUUUGGGGAUGGCUAUAAUGGGUAUGGAGGAGGACCUGGAGGUGGCAA	0.26
UGGGAGGUGGAUUUUGUUUAUUUUUUUAGCUCAUUUCCAGGGGUGGGAAUUUUUUUUUAAUAUGAGUCAUGAAUAAAGUUGUUUUUGAAA	0.0548
AAGUCCUGUGCUACACAUCGUAUGUACCGAAUCGGGUUUUUGGGUGGGUUUUUGGGAAAGUAUUAUGUUACGCCGUUCGGAUCUGCACUU	0.919
UCCUCAAGUCCUGUGCUACACAUCGUAUGUACCGAAUCGGGAGGGAGGGAGGAAAGUAUUAUGUUACGCCGUUCGGAUCUGCACUUCCAG	1.53
CUCAAGUCCUGUGCUACACAUCGUAUGUACCGAAUCGGGGCGGGGCGGCGGGGAAAGUAUUAUGUUACGCCGUUCGGAUCUGCACUUCCA	1.05
CAAGUCCUGUGCUACACAUCGUAUGUACCGAAUCGGGGAAAAGGAAAAGGAAAAGGAAAGUAUUAUGUUACGCCGUUCGGAUCUGCACUU	-0.449
CCUGUGCUACACAUCGUAUGUACCGAAUCGGGGAAAAAGGGGAAAAAAAGGGGAAAGGGGAAAGUAUUAUGUUACGCCGUUCGGAUCUGC	0.236
